Experimental data pooled from the literature.
Lines come from different studies, so protocols differ. “And” joins repeats or separate records; there may be more than shown.
Target: Protein kinase C eta type (PRKCH, Homo sapiens, UniProt P24723)
Sequence of UniProt P24723 (whole entry, looked up): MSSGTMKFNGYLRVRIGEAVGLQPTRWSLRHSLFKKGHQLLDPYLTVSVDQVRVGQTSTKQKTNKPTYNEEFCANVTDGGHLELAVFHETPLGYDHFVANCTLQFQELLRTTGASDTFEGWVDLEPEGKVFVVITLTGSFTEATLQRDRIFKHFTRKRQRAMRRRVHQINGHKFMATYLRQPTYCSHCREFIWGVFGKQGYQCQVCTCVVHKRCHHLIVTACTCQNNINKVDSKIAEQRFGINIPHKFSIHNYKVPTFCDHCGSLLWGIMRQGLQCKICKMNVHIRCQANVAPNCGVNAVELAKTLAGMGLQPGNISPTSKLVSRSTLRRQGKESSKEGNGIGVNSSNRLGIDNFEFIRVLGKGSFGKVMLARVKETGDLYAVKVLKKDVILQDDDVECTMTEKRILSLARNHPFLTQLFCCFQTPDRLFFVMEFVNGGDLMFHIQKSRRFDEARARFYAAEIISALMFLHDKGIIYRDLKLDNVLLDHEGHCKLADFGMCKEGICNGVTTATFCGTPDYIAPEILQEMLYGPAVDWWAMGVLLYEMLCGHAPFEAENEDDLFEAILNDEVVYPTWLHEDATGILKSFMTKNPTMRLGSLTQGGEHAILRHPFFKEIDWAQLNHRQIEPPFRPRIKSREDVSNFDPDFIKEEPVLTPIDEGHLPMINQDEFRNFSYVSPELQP

CNC(=O)C1CCN(c2cc(C)c(F)cc2NC(=O)c2ccc(-c3cc(O)ccc3C)c(C)c2)CC1
remaining binding (binding, competition with immobilised ligand; 1 µM): 95%

CCN1CCN(Cc2ccc(C(=O)Nc3ccc(C)c(NCc4cnc5[nH]ccc5c4OC)c3)cc2C(F)(F)F)CC1
remaining binding (binding, competition with immobilised ligand; 1 µM): 95%

O=C(Cc1ccc(OCc2ccccc2)cc1)NC1(C(=O)O)CCN(C(=O)c2ccc(-c3cccc(Cl)c3)cc2)CC1
activity vs control (enzyme activity, inhibitor; 10 µM): 97%

COc1cc(Nc2nccc(-c3cnn4nc(OC)ccc34)n2)cc(C(F)(F)F)c1
remaining binding (binding, competition with immobilised ligand; 1 µM): 100%

Cc1cccc(O[C@H]2CCC[C@@H](C(C)CNCc3ccncc3)C2)c1 (relative stereo)
inhibition (enzyme activity; 10 µM): -1%

NC(=O)C[C@H]1CCc2sc3ncnc(O[C@H]4CC[C@H](N5CCOCC5)CC4)c3c21
inhibition (enzyme activity, inhibitor; 10 µM): 3%

O=C=[N][Ru-4]123([n]4c5ccc(O)cc5c5c6c(c7cc(F)c[n+]1c7c54)C(=O)NC6=O)[S+]1CC[S+]2CC[S+]3CC1 (stereo not shown)
remaining activity (enzyme activity; 100 nM, human enzyme, added: 10 µM ATP; relative to: untreated): 106%

COc1ccc(NC(=O)Nc2ccc3c(c2)C(=O)N(C(C)CO)CC(C)C(CN(C)Cc2ccc4c(c2)OCO4)O3)cc1 (stereo not shown)
remaining activity (kinase activity, KinaseProfiler; 0.03 µM, species human; relative to: control): 96%

COCC12C(=O)NC3C4(C(OC)CC1O)C1CC5(O)C(OC)C(O)C(OC(C)=O)(C1C5OC(=O)c1ccccc1)C3(O)C(OC)C24 (stereo not shown)
remaining activity (kinase activity, inhibitor, ProQinase kinase profiling; 25 µM; relative to: control): 108% and 105%

CC(C)=CC1OC(C)(C)C2C=C3C(=O)C(Cl)=CC(O)C3C3C(O)C4OC4C(=O)C132 (stereo not shown)
remaining binding (cell-free assay, competition with immobilised ligand; 10 µM): 90%

Nc1ncc2c(n1)-c1c([nH]c3ccc(C4=CCOCC4)cc13)CCC2
remaining binding (binding, competition with immobilised ligand; 1 µM): 99%

C=CC(=O)Nc1cccc(-c2cnc3[nH]cc(C(=O)NC(C)(C)C)c3n2)c1
inhibition (enzyme activity, inhibitor; 0.1 µM): 2%

C=CC(=O)N1CCc2ccc(-n3c(=O)ccc4cnc5ccc(-c6cnn(C)c6)cc5c43)cc21
remaining binding (KINOMEscan; 1 µM; relative to: DMSO control): 90%

A few entries again:
Nc1ncc2c(n1)-c1c([nH]c3ccc(C4=CCOCC4)cc13)CCC2
remaining binding (binding, competition with immobilised ligand; 1 µM): 99%
